# Measured values gathered from unrelated publications.
# Every numbered part comes from another study and shows a few of its results, in no order.
# UniProt Q14680, sequence (whole entry, looked up): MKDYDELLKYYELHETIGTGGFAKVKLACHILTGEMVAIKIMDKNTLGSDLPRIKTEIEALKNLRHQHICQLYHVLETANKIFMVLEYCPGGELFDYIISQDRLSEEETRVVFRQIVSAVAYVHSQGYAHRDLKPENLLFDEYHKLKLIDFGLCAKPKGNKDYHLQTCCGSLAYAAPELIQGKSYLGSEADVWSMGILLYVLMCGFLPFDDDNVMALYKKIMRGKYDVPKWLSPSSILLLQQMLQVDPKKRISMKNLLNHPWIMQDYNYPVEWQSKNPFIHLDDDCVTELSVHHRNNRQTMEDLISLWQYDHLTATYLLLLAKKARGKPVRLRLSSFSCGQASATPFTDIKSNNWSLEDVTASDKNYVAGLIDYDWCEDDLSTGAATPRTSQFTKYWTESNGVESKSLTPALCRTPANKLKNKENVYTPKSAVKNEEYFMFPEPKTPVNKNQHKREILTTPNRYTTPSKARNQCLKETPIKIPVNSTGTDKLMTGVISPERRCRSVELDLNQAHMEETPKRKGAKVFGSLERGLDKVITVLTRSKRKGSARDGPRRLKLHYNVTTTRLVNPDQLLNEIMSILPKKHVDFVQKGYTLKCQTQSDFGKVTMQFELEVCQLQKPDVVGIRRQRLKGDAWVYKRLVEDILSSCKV
# UniProt Q9NSY1, sequence (whole entry, looked up): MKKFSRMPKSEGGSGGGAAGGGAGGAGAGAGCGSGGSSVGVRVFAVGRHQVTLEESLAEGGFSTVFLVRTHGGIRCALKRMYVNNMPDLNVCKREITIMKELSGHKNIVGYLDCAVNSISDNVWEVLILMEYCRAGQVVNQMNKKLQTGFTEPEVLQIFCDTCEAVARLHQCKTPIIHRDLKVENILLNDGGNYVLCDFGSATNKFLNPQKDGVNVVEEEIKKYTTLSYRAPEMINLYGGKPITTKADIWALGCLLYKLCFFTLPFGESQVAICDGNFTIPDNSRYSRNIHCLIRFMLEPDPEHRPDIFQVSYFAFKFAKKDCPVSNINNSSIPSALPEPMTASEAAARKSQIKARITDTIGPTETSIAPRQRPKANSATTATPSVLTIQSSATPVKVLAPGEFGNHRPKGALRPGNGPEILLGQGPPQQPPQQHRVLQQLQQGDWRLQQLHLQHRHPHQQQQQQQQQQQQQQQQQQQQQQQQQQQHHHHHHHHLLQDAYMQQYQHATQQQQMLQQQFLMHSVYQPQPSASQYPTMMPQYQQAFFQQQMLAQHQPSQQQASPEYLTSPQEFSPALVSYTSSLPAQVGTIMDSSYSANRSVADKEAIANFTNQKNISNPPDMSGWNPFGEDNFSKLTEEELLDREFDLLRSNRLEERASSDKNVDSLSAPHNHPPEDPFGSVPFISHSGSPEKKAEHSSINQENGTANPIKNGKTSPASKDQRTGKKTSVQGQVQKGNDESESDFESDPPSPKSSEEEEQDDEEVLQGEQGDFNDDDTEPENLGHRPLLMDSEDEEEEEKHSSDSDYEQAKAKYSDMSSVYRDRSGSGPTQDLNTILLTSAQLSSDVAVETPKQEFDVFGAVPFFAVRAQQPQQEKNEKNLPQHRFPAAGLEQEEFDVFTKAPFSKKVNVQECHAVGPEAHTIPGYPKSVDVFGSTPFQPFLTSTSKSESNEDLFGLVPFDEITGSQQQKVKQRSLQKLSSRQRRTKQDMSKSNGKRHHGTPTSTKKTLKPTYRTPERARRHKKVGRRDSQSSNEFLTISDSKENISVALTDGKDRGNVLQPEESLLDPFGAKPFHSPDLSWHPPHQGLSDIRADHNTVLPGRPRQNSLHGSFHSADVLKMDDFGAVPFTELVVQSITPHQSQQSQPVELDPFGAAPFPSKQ
# UniProt P45985, sequence (whole entry, looked up): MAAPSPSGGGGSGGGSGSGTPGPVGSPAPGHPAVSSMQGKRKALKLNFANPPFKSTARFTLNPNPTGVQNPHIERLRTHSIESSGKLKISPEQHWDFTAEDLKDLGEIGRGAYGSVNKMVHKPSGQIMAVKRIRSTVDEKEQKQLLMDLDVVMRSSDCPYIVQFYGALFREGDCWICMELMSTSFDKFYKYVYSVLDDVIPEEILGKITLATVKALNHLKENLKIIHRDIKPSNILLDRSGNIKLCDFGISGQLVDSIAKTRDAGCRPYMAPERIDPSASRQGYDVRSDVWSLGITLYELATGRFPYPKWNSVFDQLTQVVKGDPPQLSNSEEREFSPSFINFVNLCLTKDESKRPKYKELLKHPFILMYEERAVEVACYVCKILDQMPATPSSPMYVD
# UniProt P29597, sequence (whole entry, looked up): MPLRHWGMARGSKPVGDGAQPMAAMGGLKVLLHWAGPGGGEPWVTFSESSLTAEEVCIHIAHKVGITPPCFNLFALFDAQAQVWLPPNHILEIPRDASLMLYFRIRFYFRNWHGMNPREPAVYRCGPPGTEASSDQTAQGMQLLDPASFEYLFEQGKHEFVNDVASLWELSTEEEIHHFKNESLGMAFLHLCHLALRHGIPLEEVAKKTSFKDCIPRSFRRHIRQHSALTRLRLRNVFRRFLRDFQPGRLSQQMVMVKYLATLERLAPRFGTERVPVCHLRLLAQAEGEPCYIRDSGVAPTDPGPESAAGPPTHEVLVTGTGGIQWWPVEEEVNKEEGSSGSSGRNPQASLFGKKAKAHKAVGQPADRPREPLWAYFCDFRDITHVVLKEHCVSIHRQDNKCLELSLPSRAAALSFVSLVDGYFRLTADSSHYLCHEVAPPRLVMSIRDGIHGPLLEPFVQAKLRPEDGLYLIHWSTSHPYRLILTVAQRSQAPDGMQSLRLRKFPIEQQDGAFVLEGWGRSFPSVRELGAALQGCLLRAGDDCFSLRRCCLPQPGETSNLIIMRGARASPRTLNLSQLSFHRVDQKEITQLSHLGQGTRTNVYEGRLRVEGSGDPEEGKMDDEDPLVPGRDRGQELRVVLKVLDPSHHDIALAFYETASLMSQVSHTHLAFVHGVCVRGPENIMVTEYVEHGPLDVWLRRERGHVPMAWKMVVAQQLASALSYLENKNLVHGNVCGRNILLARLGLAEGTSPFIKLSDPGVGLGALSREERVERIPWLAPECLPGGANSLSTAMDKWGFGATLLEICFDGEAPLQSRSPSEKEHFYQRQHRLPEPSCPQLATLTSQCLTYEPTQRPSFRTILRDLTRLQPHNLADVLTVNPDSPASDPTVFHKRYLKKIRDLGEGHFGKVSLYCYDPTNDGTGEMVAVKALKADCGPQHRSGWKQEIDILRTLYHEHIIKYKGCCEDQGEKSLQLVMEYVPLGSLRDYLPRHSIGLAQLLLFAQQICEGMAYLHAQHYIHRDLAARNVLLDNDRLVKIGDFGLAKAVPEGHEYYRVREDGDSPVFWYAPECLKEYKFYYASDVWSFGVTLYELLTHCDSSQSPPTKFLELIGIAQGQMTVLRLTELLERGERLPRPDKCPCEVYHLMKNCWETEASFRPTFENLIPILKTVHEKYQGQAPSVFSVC

# Set 1 — method: protein-binding microarray; form: double-stranded DNA, one strand shown; matrix: in vitro; concentration: 2200 nM top; notes: 60-bp whole probe; together with: salmon DNA 0.4 mg/ml; relative to: random background probes; direction: higher = stronger binding; all sequences stand within: GCCTAGCAC … GTCTTGATTCGCTTGACGCTGCTG
# Target: Interferon regulatory factor 7, full length, phosphomimetic (IRF7, Homo sapiens, UniProt Q92985, residues 1-503, S471D/S472D/S475D/S476D/S477D/S483D/S484D/S487D)
# UniProt Q92985, sequence (whole entry, unmodified, looked up): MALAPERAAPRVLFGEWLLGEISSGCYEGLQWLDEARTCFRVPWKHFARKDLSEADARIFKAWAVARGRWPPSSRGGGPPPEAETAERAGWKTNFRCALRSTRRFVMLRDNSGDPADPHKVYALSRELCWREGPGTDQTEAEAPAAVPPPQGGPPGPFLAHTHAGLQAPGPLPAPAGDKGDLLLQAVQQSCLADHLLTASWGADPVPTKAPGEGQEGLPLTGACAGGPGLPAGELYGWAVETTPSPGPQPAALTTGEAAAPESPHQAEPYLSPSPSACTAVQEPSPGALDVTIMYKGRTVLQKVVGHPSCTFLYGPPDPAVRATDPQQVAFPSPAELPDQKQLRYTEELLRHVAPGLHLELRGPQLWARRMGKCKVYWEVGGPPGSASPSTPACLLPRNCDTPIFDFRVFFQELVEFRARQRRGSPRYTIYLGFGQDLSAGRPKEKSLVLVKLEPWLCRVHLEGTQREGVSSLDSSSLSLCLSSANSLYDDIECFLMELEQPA
Oligonucleotide,fitted relative affinity [z-score]
TTAGGTTTCCTTGTCCTTTAGTGCTAG,1.52
GACGGTATCGACTATCTGGACGTGCTA,0.225
GACGAACTGAGCTTCGAGACGTGCTAG,-0.152
CTTGTTTCCAGTATATTTAAGTGCTAG,2.72
TGAGGTTTCGGGTATCGGTTAGTGCTA,5.63
GACGGTTTCCTACTCCTGACGTGCTAG,2.34
GACGGTTTCAGTTCCGAGACGTGCTAG,3.59
TTAGGTTTCGACCCTGGGTTAGTGCTA,2.68

# Set 2 — effect on: enzyme activity; action: inhibitor; concentration: 0.5 µM; relative to: control
# Target: Dual specificity tyrosine-phosphorylation-regulated kinase 2 (DYRK2, Homo sapiens, UniProt Q92630)
# UniProt Q92630, sequence (whole entry, looked up): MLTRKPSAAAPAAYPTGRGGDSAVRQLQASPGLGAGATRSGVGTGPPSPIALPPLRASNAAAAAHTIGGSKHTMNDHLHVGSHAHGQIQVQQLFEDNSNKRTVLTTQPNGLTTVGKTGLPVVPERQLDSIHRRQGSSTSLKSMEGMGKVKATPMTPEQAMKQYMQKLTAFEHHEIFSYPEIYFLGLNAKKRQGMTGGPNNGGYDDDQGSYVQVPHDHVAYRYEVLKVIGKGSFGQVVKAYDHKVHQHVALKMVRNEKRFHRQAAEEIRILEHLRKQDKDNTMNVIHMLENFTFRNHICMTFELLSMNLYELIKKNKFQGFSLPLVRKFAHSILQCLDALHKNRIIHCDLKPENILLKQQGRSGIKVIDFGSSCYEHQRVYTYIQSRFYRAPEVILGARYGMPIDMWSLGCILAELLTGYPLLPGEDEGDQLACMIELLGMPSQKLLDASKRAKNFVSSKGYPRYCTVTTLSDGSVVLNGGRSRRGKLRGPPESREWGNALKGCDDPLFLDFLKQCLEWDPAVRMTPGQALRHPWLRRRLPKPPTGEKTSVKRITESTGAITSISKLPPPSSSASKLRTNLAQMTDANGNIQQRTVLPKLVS
SMILES,remaining activity [%]
O=C1NC(=O)C(c2cn(CCCn3ccnc3)c3ccccc23)=C1Nc1ccccc1,97.3
O=C1NC(=O)C(c2cn(CCCO)c3ncccc23)=C1c1cnccn1,81.7
Oc1ccc(-c2nc(-c3ccncc3)c(-c3ccc(F)cc3)[nH]2)cc1,99.3
COc1cc2ncnc(Nc3ccc(F)c(Cl)c3)c2cc1OCCCN1CCOCC1,98.2
O=C(O)c1ccc2c3c1cccc3c(=O)n1c3ccccc3nc21,50.7
CCOC(=O)c1c(C)[nH]c(/C=C2\C(=O)Nc3ccccc32)c1C,92.4
COc1cc2nccc(Oc3ccc(NC(=S)NC(=O)c4ccccc4C)cc3)c2cc1OC,87.5
CN(C)c1ccc(C=C2C(=O)Nc3ccccc32)cc1,100
O=c1c2ccccc2[nH]c(=S)n1CCN1CCC(=C(c2ccc(F)cc2)c2ccc(F)cc2)CC1,95.4
Cc1cccc(-c2[nH]c(C(C)(C)C)nc2-c2ccc3c(c2)OCO3)n1,108
COc1cc2ncnc(Nc3ccc(Oc4ccccc4)cc3)c2cc1OC,104
N#CC(C#N)=C(N)/C(C#N)=C/c1ccc(O)cc1,117
Cn1c2ccccc2c2c3c(c4c5ccccc5n(CCC#N)c4c21)CNC3=O,48.9
Nc1ncnc2n[nH]c(Nc3ccc(F)cc3)c12,90.6
O=S(=O)(c1cccc2cnccc12)N1CCCNCC1,97.9

# Set 3 — method: RNA Bind-n-Seq; form: RNA; matrix: in vitro; concentration: 200 nM; notes: whole 134-nt RNA, ends assumed; together with: 150 mM KCl; relative to: input library; direction: higher = stronger binding
# Target: Fragile X messenger ribonucleoprotein 1, C-terminal low-complexity region (Fmr1, Mus musculus, UniProt P35922)
# All sequences stand within: GGGAGUUCUACAGUCCGACGAUC … UGGAAUUCUCGGGUGUCAAGG
Oligonucleotide,log2 enrichment
UCCUGUGCUACACAUCGUAUGUACCGAAUCGGGGUUUGGGGAAAGGGGAAAAAAAGGGGAAAGUAUUAUGUUACGCCGUUCGGAUCUGCA,0.378
CCUCAAGUCCUGUGCUACACAUCGUAUGUACCGAAUCGGAAAGGAAAGGUGGAAAGUAUUAUGUUACGCCGUUCGGAUCUGCACUUCCAG,0.0757
UGUGCUACACAUCGUAUGUACCGAAUCGGGAAAAAAAGGGGAAAAAAAGGGAAAAAAAGGGGAAAGUAUUAUGUUACGCCGUUCGGAUCU,-0.16
AGUCCUGUGCUACACAUCGUAUGUACCGAAUCGGGAAAAAGGGUUUUUGGGUUUGGGAAAGUAUUAUGUUACGCCGUUCGGAUCUGCACU,-0.0579
UGUGCUACACAUCGUAUGUACCGAAUCGGGGUUUUUUUGGGGUUUUUGGGGUUUUUUUGGGGAAAGUAUUAUGUUACGCCGUUCGGAUCU,0.359
UAACUUUAGAGGAGGAUCUGAUGGAUAUGUCAGUGGACGUGGAUUUGGGGAUGGCUAUAAUGGGUAUGGAGGAGGACCUGGAGGUGGCAA,0.308
CUCAAGUCCUGUGCUACACAUCGUAUGUACCGAAUCGGGGAGGGGAGGGAGGGGAAAGUAUUAUGUUACGCCGUUCGGAUCUGCACUUCC,1.23
CCUGUGCUACACAUCGUAUGUACCGAAUCGGGGUUUUUUGGGGUUUUUUGGGUUUUUUGGGAAAGUAUUAUGUUACGCCGUUCGGAUCUG,-0.412

# Set 4 — effect on: cell-free assay; method: competition with immobilised ligand; concentration: 1 µM
# SMILES: O=C(NC[C@@H]1[C@H]2CN(C(=O)OCc3cc(C(F)(F)F)cc(C(F)(F)F)c3)C[C@@H]12)c1ccc2[nH]nnc2c1
target,remaining binding [%]
"MELK (Homo sapiens, UniProt Q14680)",97
"BMP2K (Homo sapiens, UniProt Q9NSY1)",85
"MAP2K4 (Homo sapiens, UniProt P45985)",95
"MAP3K15 (Homo sapiens, UniProt Q6ZN16)",53
"Non-receptor tyrosine-protein kinase TYK2, JH1 (TYK2, Homo sapiens, UniProt P29597)",100

# For quick reference, copied from above (set 2):
SMILES,remaining activity [%]
CN(C)c1ccc(C=C2C(=O)Nc3ccccc32)cc1,100
COc1cc2ncnc(Nc3ccc(F)c(Cl)c3)c2cc1OCCCN1CCOCC1,98.2
